# Measurements collected from several papers.
# Protocols differ between the studies behind these lines. ± marks the error that the study gave.
SMILES,assay,system,conditions,how to read,quantity,value
COc1ccc(OC)c(-c2oc3c(OC)c(OC)c(OC)cc3c(=O)c2OC)c1,,"C57BL/6 mouse, male, feces","oral, 1% w/w in diet, 6 weeks, orange peel extract diet",baseline: content in orange peel,tissue to peel content ratio,69.6%
N=C(N)NCCC[C@H](N)C(=O)N1CCC[C@H]1C(=O)N1CCC[C@H]1C(=O)NCC(=O)N[C@@H](Cc1ccccc1)C(=O)N[C@@H](CO)C(=O)N1CCC[C@H]1C(=O)N[C@@H](Cc1ccccc1)C(=O)O,LC-MS/MS,human serum,"concentration not given, 4 h, room temperature, tube without gel separator",baseline: initial concentration,change in serum concentration,-87.1 ± 5%
Cc1ccc(NC(=O)c2ccc(CN3CCN(C)CC3)cc2)cc1Nc1nccc(-c2cncc(-c3oncc3C)c2)n1,,"Parkinson's disease patients, plasma","oral, 100 mg once daily, day 1, 7-day dosing, mean",,dose-normalised AUC(0-inf),687 ng·h/mL/mg
CC[C@H](C)[C@@H]1NC(=O)[C@H](Cc2ccc(O)cc2)NC(=O)[C@@H](N)CSSC[C@@H](C(=O)N2CCC[C@H]2C(=O)N[C@@H](CC(C)C)C(=O)NCC(N)=O)NC(=O)[C@H](CC(N)=O)NC(=O)[C@H](CCC(N)=O)NC1=O,"microdialysis, radioimmunoassay","knock-out male mice lacking compound, hippocampus extracellular fluid","intraperitoneal, 12 µg total, incremental area over baseline",,AUC above baseline,86.7 ± 38.8 pg·30 min/sample
COC(=O)C[C@](O)(CCCC(C)(C)O)C(=O)O[C@@H]1C(OC)=C[C@]23CCCN2CCc2cc4c(cc2[C@H]13)OCO4,,"CD1 mouse, brain","oral, 1 mg/kg, 0.5 h, below quantification limit 1.00 ng/mL",,tissue concentration,not detected
CN1CCN(C(=O)[C@@H](N)CSSC[C@H](N)C(=O)N2CCN(C)CC2)CC1.Cl.Cl.Cl.Cl,,"Slc3a1 knockout male mice, urine","oral gavage, 29.3 µmol/kg daily, 1 week dosing, 4 h after last dose",,urine concentration,7.59 ± 1.34 µM
COc1cc(/C=C/C(=O)CC(=O)/C=C/c2ccc(O)c(OC)c2)ccc1O,,"male C3H/HeJ mice, bone marrow","oral, 500 mg/kg, 30 min",,concentration,470 nM
COc1cc2c(cc1OC)[C@@H]1Cc3ccc(OC)c(OC)c3CN1CC2,,rat plasma QC sample,"640 ng/mL nominal, 24 h, 23 °C, medium QC level storage stability",,measured concentration,644 ± 11.6 ng/mL
CCCC[C@@H]1NC(=O)[C@@H](NC(=O)[C@H](CCC(=O)O)NC(=O)CNC(=O)CN2CCN(CC(=O)O)CCN(CC(=O)O)CCN(CC(=O)O)CC2)CCCCNC(=O)C[C@@H](C(N)=O)NC(=O)[C@H](C(C)C)NC(=O)[C@@H]2CCCN2C(=O)[C@H](CCCNC(=N)N)NC(=O)CNC(=O)[C@H](Cc2c[nH]c3ccccc23)NC(=O)[C@H](CCCNC(=N)N)NC(=O)[C@@H](Cc2ccccc2)NC(=O)[C@H](Cc2c[nH]cn2)NC(=O)[C@H](CCC(=O)O)NC1=O [indium-111 labelled],,"normal C57 mice, muscle","intravenous, 0.037 MBq, 24 h",,tissue uptake,0.02 ± 0.01 %ID/g
CCN(CC)CCNC(=O)c1c(C)[nH]c(/C=C2\C(=O)Nc3ccc(F)cc32)c1C,,"human, plasma","oral, 20 mg/m2, day 7",,minimum trough plasma concentration,23.1 ng/mL
CC(C)C[C@@H]1NC(=O)[C@H](C)NC(=O)[C@H](Cc2ccccc2)N(C)Cc2ccc([nH]2)CNC1=O,,PAMPA,"100 µM, 17 h, pH 6.4",,Papp,7.76 ×10⁻⁶ cm/s
Cc1[nH]c2ccccc2c1CCNCc1ccc(/C=C/C(=O)NO)cc1,,human,"concentration not given, day 7, added: doxazosin, irbesartan, hydrochlorothiazide",,maximum serum creatinine,1.72 mg/dL
CC(C)(/C=C(\C#N)C(=O)N1CCC[C@@H](n2nc(-c3ccc(Oc4ccccc4)cc3F)c3c(N)ncnc32)C1)N1CCN(C2COC2)CC1,Holter ECG,healthy human,"oral, 400 mg, 6 h post-dose, lowest value",baseline: placebo,placebo-corrected ΔHR,-1.9 bpm
Cc1[nH]c(=O)c(CNC(=O)c2ccc(C(F)(F)F)o2)c2c1CCCC2,U-HPLC,20% DMSO in water,,,kinetic solubility,100 µg/mL
O=C(CCc1ccccc1)N[C@H]1CNC1=O,chemical stability,PBS,"1 µM, 24 h, pH 7.4",,compound remaining,92%
NCCN[C@H]1CC[C@H](CC(=O)N[C@H]2Cc3cccc(C(=O)O)c3OB2O)CC1,,humans,"intravenous infusion, dose not given, 8 h after third infusion start",,epithelial lining fluid concentration,0.3 mg/L
c1ccc2c(c1)cc1ccc3cccc4ccc2c1c34,,"male ApcMin/+ mice, plasma","oral gavage, 100 µg/kg, added: RVT 45 µg/kg",,mean residence time,2.4 ± 0.01 h
COc1ccc(-c2cc(=O)c3c(OC)c(OC)c(OC)c(OC)c3o2)cc1,,"C57BL/6 mouse, male, kidney","oral, 1% w/w in diet, 6 weeks, orange peel extract diet",baseline: content in orange peel,tissue to peel content ratio,0.013%
Cn1c(-c2ccc(C(N)=O)cc2F)nnc1C(C)(C)Oc1c(F)cc(Cl)cc1F,,"young non-Japanese subjects, plasma","oral, 50 mg single dose, day 1",,AUC(0-inf) median,7180 ng·h/mL
CNCc1ccc(-c2[nH]c3cc(F)cc4c3c2CCNC4=O)cc1,,"human cancer patients, plasma","intravenous, 8 mg/m2, day 1, added: temozolomide 100",,clearance,250 mL/min
CC[C@H](C)[C@H](NC(=O)[C@H](Cc1ccccc1)NC(=O)[C@H](CC(=O)O)NC(=O)[C@H](CCCNC(=N)N)NC(=O)[C@H](C)NC(=O)[C@H](C)NC(=O)[C@H](CC(C)C)NC(=O)[C@H](CC(N)=O)NC(=O)[C@H](CC(=O)O)NC(=O)[C@H](CC(C)C)NC(=O)[C@@H](NC(=O)[C@@H](NC(=O)[C@H](CC(N)=O)NC(=O)[C@H](CCSC)NC(=O)[C@H](CCC(=O)O)NC(=O)[C@H](CC(=O)O)NC(=O)[C@H](CO)NC(=O)[C@H](Cc1ccccc1)NC(=O)[C@H](CO)NC(=O)CNC(=O)[C@H](CC(=O)O)NC(=O)CNC(=O)[C@@H](N)Cc1c[nH]cn1)[C@@H](C)O)[C@@H](C)CC)C(=O)N[C@@H](CC(N)=O)C(=O)N[C@@H](Cc1c[nH]c2ccccc12)C(=O)N[C@@H](CC(C)C)C(=O)N[C@H](C(=O)N[C@@H](CCC(N)=O)C(=O)N[C@H](C(=O)N[C@@H](CCCCN)C(=O)N[C@H](C(=O)N[C@H](C(=O)N[C@@H](CC(=O)O)C(=O)O)[C@@H](C)O)[C@@H](C)CC)[C@@H](C)O)[C@@H](C)CC,,Japanese adult patients,"subcutaneous, 0.05 mg/kg",baseline: non-Japanese adult patients,AUCss increase,7.4%
Cc1cnc(NC(=O)C2=C(O)c3ccccc3S(=O)(=O)N2C)s1,,"Sprague-Dawley rat, male, liver","oral, 12 mg/kg, 24 h, single high dose",direction not given,hepatocyte vacuolization score,0
O=C(CCCCCCC(=O)Nc1ccccc1)NO,,"patients, serum","oral, 600 mg, cycle -1, alone",,AUC(0-7 h),8.52 µM·h
CCOc1ccc(NC(=S)N(CCO)Cc2cc3cc(C)cc(C)c3[nH]c2=O)cc1,precipitation,aqueous solution from DMSO stock,,,solubility limit,> 100 µM
CC(C(=O)O)c1ccc(-c2ccccc2)c(F)c1 (centres unmarked),,"rabbit, male, plasma","oral, 2.58 mg/kg, single dose",,Vd,0.09 ± 0.02 L/kg
CN1CC[C@@H](NC(=O)Nc2ccc(C#N)cc2)C[C@@H]1c1nc2ccccc2[nH]1,,"human, moderate hepatic impairment, fasted, plasma","oral, 100 mg single dose, geometric mean, fu × total",,unbound Cmax,73.6 ng/mL
CCCC[C@H](NC(C)=O)C(=O)N[C@H]1CCC(=O)NC[C@@H](C(=O)N[C@@H](Cc2c[nH]c3ccccc23)C(N)=O)NC(=O)[C@H](CCCNC(=N)N)NC(=O)[C@@H](Cc2ccccc2)NC(=O)[C@H](Cc2c[nH]cn2)NC1=O,,"beagle dog, male, plasma","subcutaneous, 40.0 mg/kg daily, day 28",,AUC(0-last),4620 ng·h/mL
CN1CC(=O)NC1=N,in vitro haemodialysis,buffered aqueous solution,"concentration not given, blood 50, dialysate 250 mL/min",,dialysis clearance,47 mL/min
CCCOc1ccc([C@H]2CNC(=O)N2c2ccc3[nH]cnc3c2)cc1,,"human, plasma","oral, 30 mg, single dose, fasted",,AUC(0-inf),174 ng·h/mL
C#C[C@]1(CO)O[C@@H](n2cnc3c(N)nc(F)nc32)C[C@@H]1O,,"human, plasma","oral, 30 mg, single dose, fasted",,AUC(0-t),3.74 µM·h
CNCc1ccc(-c2[nH]c3cc(F)cc4c3c2CCNC4=O)cc1,,"human, fed high-fat meal, plasma","oral, 600 mg, single dose, median",,half-life,14.4 h
CC(C)=CCC[C@](C)(O[C@@H]1O[C@H](CO)[C@@H](O)[C@H](O)[C@H]1O)[C@H]1CC[C@]2(C)[C@@H]1[C@H](O)C[C@@H]1[C@@]3(C)CC[C@H](O[C@@H]4O[C@H](CO)[C@@H](O)[C@H](O)[C@H]4O[C@@H]4O[C@H](CO)[C@@H](O)[C@H](O)[C@H]4O)C(C)(C)[C@@H]3CC[C@]12C,,"Sprague-Dawley rat, plasma","oral, 200 mg/kg ginsenoside Rb1",,AUC,664 ± 285 ng·h/mL
CC1=C2C[C@H]3[C@@H](CC[C@@H]4C[C@H](NS(C)(=O)=O)CC[C@@]43C)[C@@H]2CC[C@@]2(C1)O[C@@H]1C[C@H](C)CN[C@H]1[C@H]2C,,"patients, plasma","oral, 30 mg daily, day 22, cycle 1",,AUC(0-24),508 ng·h/mL
C[C@]12CC[C@@H]3c4ccc(O)cc4CC[C@H]3[C@@H]1C[C@@H](O)[C@@H]2O,GC-MS,"breast cancer women on NSAI, serum","vaginal, 0.03 mg daily, 6 h, day 28",,minimum serum concentration,0 ng/mL
C[N+]1(CC(=O)OC2CCCC2)CCCCC1.[I-],metabolic stability,"human, liver microsomes","1 µM, pH 7.4",,half-life,> 1 h
NC(=O)OCC(COC(N)=O)c1ccccc1,,"Sprague-Dawley rat, male, liver","oral, 300 mg/kg, 6 h, single low dose",direction not given,hepatocyte necrosis score,0
Cc1ccc(NC(=O)c2ccc(CN3CCNCC3)cc2)cc1Nc1nccc(-c2cccnc2)n1,,"human, plasma","oral, 400 mg imatinib first dose, day 1 of cycle 1, metabolite of imatinib alone, mean",,volume of distribution,1360 L
CC(C)=CCC[C@](C)(O[C@@H]1O[C@H](CO)[C@@H](O)[C@H](O)[C@H]1O)[C@H]1CC[C@]2(C)[C@@H]1[C@H](O)C[C@@H]1[C@@]3(C)CC[C@H](O)C(C)(C)[C@@H]3[C@@H](O[C@@H]3O[C@H](CO)[C@@H](O)[C@H](O)[C@H]3O[C@@H]3O[C@@H](C)[C@H](O)[C@@H](O)[C@H]3O)C[C@]12C,,"rat, extracted plasma QC samples","1.0 µg/mL, 24 h, 15 °C, autosampler",,post-preparative stability accuracy,92.1 ± 6.5%
Cc1nc2cccc(OCC(C)(C)C(=O)NC(C)C)c2c(N)c1C(=O)O,,"Sprague-Dawley rat, plasma","oral, 100 mg/kg/day",,AUC(0-t),232 ng·h/mL
COc1cccc2c1C(=O)c1c(O)c3c(c(O)c1C2=O)C[C@@](O)(C(=O)CO)C[C@@H]3O[C@H]1C[C@H](N)[C@H](O)[C@H](C)O1,,"ICR mouse, male, plasma","intravenous, 6.0 mg/kg",,terminal half-life,3.21 h
CCCSc1nc(N[C@@H]2C[C@H]2c2ccc(F)c(F)c2)c2nnn([C@@H]3C[C@H](OCCO)[C@@H](O)[C@H]3O)c2n1,,"Wistar Han rat, male, plasma","oral, 60 mg/kg/day, day 1, carcinogenicity study",,AUC,85.5 µM·h
CCCCCCCC(=O)OC[C@H](NC(=O)[C@H](CO)NC(=O)CN)C(=O)N[C@H](C(=O)N[C@@H](CC(C)C)C(=O)N[C@@H](CO)C(=O)N1CCC[C@H]1C(=O)N[C@@H](CCC(=O)O)C(=O)N[C@@H](Cc1c[nH]cn1)C(=O)N[C@@H](CCC(N)=O)C(=O)N[C@@H](CCCNC(=N)N)C(=O)N[C@H](C(=O)N[C@@H](CCC(N)=O)C(=O)N[C@@H](CCC(N)=O)C(=O)N[C@@H](CCCNC(=N)N)C(=O)N[C@@H](CCCCN)C(=O)N[C@@H](CCC(=O)O)C(=O)N[C@@H](CO)C(=O)N[C@@H](CCCCN)C(=O)N[C@@H](CCCCN)C(=O)N1CCC[C@H]1C(=O)N1CCC[C@H]1C(=O)N[C@@H](C)C(=O)N[C@@H](CCCCN)C(=O)N[C@@H](CC(C)C)C(=O)N[C@@H](CCC(N)=O)C(=O)N1CCC[C@H]1C(=O)N[C@@H](CCCNC(=N)N)C(=O)O)C(C)C)[C@@H](c1ccccc1)c1c[nH]c2ccccc12,RP-HPLC Jupiter Proteo,,acetonitrile/water TFA gradient,,HPLC retention,40.4 %B
O=C(/C=C/c1cccc(S(=O)(=O)Nc2ccccc2)c1)NO,,"human normal liver function, plasma","intravenous, 400 mg/m^2, 30 min infusion, cycle 1 day -7",,clearance,661 mL/min/m²
CO[C@H]1C[C@@H]2CC[C@@H](C)[C@@](O)(O2)C(=O)C(=O)N2CCCC[C@H]2C(=O)O[C@H]([C@H](C)C[C@@H]2CC[C@@H](O)[C@H](OC)C2)CC(=O)[C@H](C)/C=C(\C)[C@@H](O)[C@@H](OC)C(=O)[C@H](C)C[C@H](C)/C=C/C=C/C=C/1C,,"NOD/SCID mice, male, blood or plasma","intraperitoneal, 0.5 mg/kg every 48 h",,terminal half-life,13.6 h
